Measured values from different studies.
Every numbered part comes from another study and shows a few of its results, in no order.

Series 1
Target: RING finger protein unkempt homolog, zinc fingers 1-6, GST-SBP tag (UNK, Homo sapiens, UniProt Q9C0B0, residues 30-357)
Sequence of UniProt Q9C0B0 (30-357, looked up): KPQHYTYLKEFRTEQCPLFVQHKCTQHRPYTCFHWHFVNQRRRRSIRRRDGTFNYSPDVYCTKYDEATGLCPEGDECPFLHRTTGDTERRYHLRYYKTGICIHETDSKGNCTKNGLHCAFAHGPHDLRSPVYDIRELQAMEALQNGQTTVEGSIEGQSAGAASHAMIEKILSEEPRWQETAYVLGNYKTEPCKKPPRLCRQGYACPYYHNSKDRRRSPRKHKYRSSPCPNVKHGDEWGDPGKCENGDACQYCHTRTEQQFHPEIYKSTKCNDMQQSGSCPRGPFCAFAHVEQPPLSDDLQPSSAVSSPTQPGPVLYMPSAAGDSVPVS
Technique: RNA Bind-n-Seq
Molecule type: RNA
Matrix: in vitro
Concentration: not given
Setting: RNA with constant flanks, human and mouse sites, ends assumed
Baseline: input RNA pool
Direction: higher = stronger binding
| Strand | bound/input enrichment |
| --- | --- |
| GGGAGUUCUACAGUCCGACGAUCGUUUUGAUAACAGAACAUGGAGACUUGGGAAAUGGAAAAUUUUUGGAUCCAAAAAACAGAAUCUGUUUCAAAUUUGAUCAUUUAAGAAAGGAAGCAACUGAUCCAAGGCCCUACGAAGCACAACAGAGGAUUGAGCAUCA | 0.225 ratio |
| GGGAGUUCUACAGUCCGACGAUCCAAGCAGCUCUUGAAUUUCAUGGUGUUGCCCAAGAUUUGUCUCAGCAGUUGGAUGGCUUAUUAGGGAUGUUGUGCGUAGAUGUAGCACCAGCUGAUGGAGCAUCGAUUCAGCAAACUUUACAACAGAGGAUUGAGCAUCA | 0.359 ratio |
| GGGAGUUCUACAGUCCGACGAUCUGCACAGAAGUUAUCCAGUCGGCUCAAGGCAUGGAGUAUCUUCUAGGUGUGGUGGAAGUGUACCGCGUAACCAAGCGUGUGGAGCUGGGGAUAAAAGCCACUGCUGUGUGUAGUGAGAAACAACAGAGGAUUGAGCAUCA | 0.291 ratio |
| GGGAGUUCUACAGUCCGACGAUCCCUGAAAAUGAAAAGGAAGCUUCAGGUGGAGACAGCCCGAAGGAUGAUUCAAAGCCGCCUUACUCCUACGCGCAGCUGAUAGUUCAGGCGAUUACGAUGGCUCCCGACAAACAGCUCACCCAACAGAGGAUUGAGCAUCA | 0.108 ratio |
| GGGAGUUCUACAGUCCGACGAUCAACACAUGCUGAACACUGAGCUUCUAAUUGUUGUCCAAGGAACCCAUGUAUUCAUUAUACCAUGCUGAGGUUUGGUUUAAAAGAUCUAGGCAACUUAUUUAAUCUUAUUUAAACAAAUAUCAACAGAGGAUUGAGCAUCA | 1.54 ratio |
| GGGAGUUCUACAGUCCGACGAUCCAAGGGAAGCCCAACUUUGAAGAGUUCUUUGAAAUUCUAACUCCCAAAAUCAACCAGACAUUUAGUGGCAUCAUGACAAUGUUGAACAUGCAGUUUGUCAUCCGGGUGAGGAGAUGGGAUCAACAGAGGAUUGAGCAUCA | 0.296 ratio |
| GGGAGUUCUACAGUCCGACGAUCGAGACUUUUGAUGCAAAUGAUUUGUAUCAGGGGCAGAACUUUAACAAGGUCCUCAGCUCCUUGGUGACACUAAAUAAAGUGACAGCAGACAUUGGACUAGGAAGUGAUUCUGUGUGUGCUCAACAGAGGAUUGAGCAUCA | 0.305 ratio |
| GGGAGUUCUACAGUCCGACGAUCCAUGGCCAUGGUAAAAUGGAACUUCCAGAUUACAGACAGUGGAAAAUUGAAGGGACGCCAUUAGAAACGGUGCAGAAGAAGCUUGCUGCCCGAGGGCUGAGGGAUCCAUGGGCUCGCAAUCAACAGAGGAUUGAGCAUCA | 0.589 ratio |

Series 2
Target: RNA binding protein fox-1 homolog 2, RRM domain, GST-SBP tag (RBFOX2, Homo sapiens, UniProt O43251-10, residues 100-194)
Technique: RNA Bind-n-Seq
Molecule type: RNA
Matrix: in vitro
Concentration: 365 nM
Setting: natural RNA segment, single round, ends assumed
Baseline: no-protein control
Direction: higher = stronger binding
Residues (chain): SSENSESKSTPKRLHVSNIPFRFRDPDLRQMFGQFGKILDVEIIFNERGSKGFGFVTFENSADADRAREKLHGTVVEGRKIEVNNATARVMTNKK
| Strand | RBNS enrichment (R) |
| --- | --- |
| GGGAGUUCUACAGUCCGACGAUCAUGUGUGUCGUUAACAUUUAUAUAUUUCCAUUCAAAAUAUGUAUUCAGUGUUUAUUUCCUCAAAACAGACUUUGUUAAUGUAGGAAAUCUCUCCAAGUGGAAACGUGCUAUGGAAUUCUCGGGUGCCAA | 0.288 |
| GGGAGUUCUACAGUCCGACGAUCCACACUGCCCAUGGUGGGUUUAAGUUACUGAAGUUCGAUUACUCAGGCCUGAUGAAUUUUUAAGACUGCUUUGUUGGUCAUUUGGCUGAUGGCUUCUUAUGUGCAUUCAAUGGAAUUCUCGGGUGCCAA | 0.417 |
| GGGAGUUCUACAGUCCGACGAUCGGUUUCCUGUUGUGACAGUAAUAAUGGUUAUAAUAAUAAAAAUGAUAAAAUUGCCAUCAUUCUAUUUUUAUCCAAAAGUAUAAAUUUUGCUUUGGCAUGAAAAGUGGUCCUGGAAUUCUCGGGUGCCAA | 0.824 |
| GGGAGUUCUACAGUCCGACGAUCAAUAGAAGUAUUAAAAAGAAUCAUCCUUUAAAUCACAGAUCUUAUUUUGAGAUUAAAAAAAAUACUUCUAGCUUUAGCCAGGUGUGCAUGUUGCUGCCAUUUUGCAUUUUUGGAAUUCUCGGGUGCCAA | 3.39 |
| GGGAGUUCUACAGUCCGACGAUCGUUUGUUCUUCAUAGGACCAAUUUUUAUUUGCAGCUUGAGUUUUUAUAUGAAGUUGCAUUAUUGUGGACUUGGCUGUCUUGUGAUGAAUUUUUUUCAUAUGUAUUCUGUGUGGAAUUCUCGGGUGCCAA | 0.858 |
| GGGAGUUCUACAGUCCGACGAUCGUGGUGCUCACCAGAGUCAGGCCACCCACUGGGCUCGGCAGGAGAUAGGGAGCCCCAUCACCUGACCACAGCCCCCCACCAACAUUCCCCCAAAAUGCAGCCUAGGAGGCUGGAAUUCUCGGGUGCCAA | 0.45 |
| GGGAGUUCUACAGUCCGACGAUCGAGUGGAUAAGCCUGCAUUAAUACAACCUUUCUCCAUUCACUUUCUAUUUACAAAUUAGGAAAGCAACCUUUUGGUUUAUAUAUAUUUUUUUUAAUACCUCAGUGCUGCAUGGAAUUCUCGGGUGCCAA | 0.847 |
| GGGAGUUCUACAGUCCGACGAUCUCUAAAUUCAGUAGCAGUUUCAUCGACAGUGCCAUUGAACUAUGGGAACAUUUAUGAUUUUCUUUCAACAUUAAAACUGAAGUUAGUUUUGCCAUUUUUGAAAGUAUUAGUGGAAUUCUCGGGUGCCAA | 0.333 |

Series 3
Target: Histone acetyltransferase KAT6A, winged helix 1, GST fusion (KAT6A, Homo sapiens, UniProt Q92794, residues 1-85)
Technique: protein binding microarray
Molecule type: double-stranded DNA, one strand shown
Matrix: in vitro
Concentration: not given
Setting: 8-mer, flanks averaged, mean of 2 arrays, mostly near background
Baseline: not given
Direction: higher = stronger binding
Construct (chain): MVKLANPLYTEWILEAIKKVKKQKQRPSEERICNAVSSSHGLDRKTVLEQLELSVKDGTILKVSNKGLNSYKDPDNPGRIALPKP
| Strand | E-score |
| --- | --- |
| ATCATGAA | -0.163 |
| GCATTGAC | 0.0316 |
| CATCCGAG | -0.05 |
| AAGCTATG | -0.0738 |
| CTTGCCGC | 0.403 |
| CGACAGGA | -0.0109 |
| CAGATACG | 0.14 |
| GCCAGTTA | -0.125 |
| CAAAAAAA | -0.0997 |
| AACTTCGC | 0.0685 |
| CACGGATA | 0.151 |
| AAGAAGCC | 0.0459 |
| CTACGGGC | 0.357 |
| GAATTACA | -0.109 |
| AAAGCCAT | -0.0266 |
| CCTCAGTC | -0.211 |
| ATCATCCG | 0.0151 |

Series 4
Target: Fragile X messenger ribonucleoprotein 1, C-terminal low-complexity region (Fmr1, Mus musculus, UniProt P35922)
Technique: RNA Bind-n-Seq
Molecule type: RNA
Matrix: in vitro
Concentration: 200 nM
Setting: whole 134-nt RNA, ends assumed
With: 150 mM LiCl
Baseline: input library
Direction: higher = stronger binding
Each molecule: 7-deaza-guanosine replaces G
| Strand | log2 enrichment |
| --- | --- |
| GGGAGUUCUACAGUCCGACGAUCUGUGCUACACAUCGUAUGUACCGAAUCGGGAAAAAAAGGGGAAAAAAAGGGGAAAAAAAGGGAAAGUAUUAUGUUACGCCGUUCGGAUCUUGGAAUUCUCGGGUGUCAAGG | 0.667 |
| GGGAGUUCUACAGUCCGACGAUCGUCCUGUGCUACACAUCGUAUGUACCGAAUCGGGCCCCCGGCCCCCGGGGCCCCCGGGAAAGUAUUAUGUUACGCCGUUCGGAUCUGCACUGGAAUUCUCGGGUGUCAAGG | -2.88 |
| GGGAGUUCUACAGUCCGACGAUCUGGGAGGUGGAUUUUCUUUAUUUUUUUAGCUCAUUUCCAGGGGUGGGAAUUUUUUUUUAAUAUGUGUCAUGAAUAAAGUUGUUUUUGAAAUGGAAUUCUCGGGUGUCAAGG | 0.0231 |
| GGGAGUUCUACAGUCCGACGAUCAAGUCCUGUGCUACACAUCGUAUGUACCGAAUCGGGAAAGGGAGGGUUUUUUUGGGAAAGUAUUAUGUUACGCCGUUCGGAUCUGCACUUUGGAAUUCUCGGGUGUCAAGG | -1.14 |
| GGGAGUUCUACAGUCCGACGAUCUCCUCAAGUCCUGUGCUACACAUCGUAUGUACCGAAUCGGAGGUUUGGUGGAAAGUAUUAUGUUACGCCGUUCGGAUCUGCACUUCCAGCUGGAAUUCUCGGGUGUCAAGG | -1.7 |
| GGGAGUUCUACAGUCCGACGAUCUGCUUCUCUAUGGAAAGGACUUUCCCCCAAGCUGGACGAGGCAUUAAGAAGGAUAGAGGACUCCAGCAGGCUGACUCUACACUUCAUCAUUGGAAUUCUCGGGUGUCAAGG | 1.01 |
| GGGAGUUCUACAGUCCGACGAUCAGUCCUGUGCUACACAUCGUAUGUACCGAAUCGGGAAAAGGGGAAAAGGGGAAAAGGAAAGUAUUAUGUUACGCCGUUCGGAUCUGCACUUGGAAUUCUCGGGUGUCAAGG | -0.746 |
| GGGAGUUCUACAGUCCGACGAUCCCUCAAGUCCUGUGCUACACAUCGUAUGUACCGAAUCGGAGGAAAGGUUUGGAAAGUAUUAUGUUACGCCGUUCGGAUCUGCACUUCCAGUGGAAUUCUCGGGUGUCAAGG | -1.3 |

For quick reference, copied from above (series 2):
| Strand | RBNS enrichment (R) |
| --- | --- |
| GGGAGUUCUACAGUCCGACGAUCGGUUUCCUGUUGUGACAGUAAUAAUGGUUAUAAUAAUAAAAAUGAUAAAAUUGCCAUCAUUCUAUUUUUAUCCAAAAGUAUAAAUUUUGCUUUGGCAUGAAAAGUGGUCCUGGAAUUCUCGGGUGCCAA | 0.824 |
| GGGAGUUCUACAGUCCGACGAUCAAUAGAAGUAUUAAAAAGAAUCAUCCUUUAAAUCACAGAUCUUAUUUUGAGAUUAAAAAAAAUACUUCUAGCUUUAGCCAGGUGUGCAUGUUGCUGCCAUUUUGCAUUUUUGGAAUUCUCGGGUGCCAA | 3.39 |
| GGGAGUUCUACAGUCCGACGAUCGUUUGUUCUUCAUAGGACCAAUUUUUAUUUGCAGCUUGAGUUUUUAUAUGAAGUUGCAUUAUUGUGGACUUGGCUGUCUUGUGAUGAAUUUUUUUCAUAUGUAUUCUGUGUGGAAUUCUCGGGUGCCAA | 0.858 |
| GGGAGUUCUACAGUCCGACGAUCGUGGUGCUCACCAGAGUCAGGCCACCCACUGGGCUCGGCAGGAGAUAGGGAGCCCCAUCACCUGACCACAGCCCCCCACCAACAUUCCCCCAAAAUGCAGCCUAGGAGGCUGGAAUUCUCGGGUGCCAA | 0.45 |
| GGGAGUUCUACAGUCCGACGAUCGAGUGGAUAAGCCUGCAUUAAUACAACCUUUCUCCAUUCACUUUCUAUUUACAAAUUAGGAAAGCAACCUUUUGGUUUAUAUAUAUUUUUUUUAAUACCUCAGUGCUGCAUGGAAUUCUCGGGUGCCAA | 0.847 |
